Assay results pooled from the literature.
Lines come from different studies, so protocols differ. “And” joins repeats or separate records; there may be more than shown. Numbers after ± are the reported error.

| SMILES | assay | test system | setting | scale | quantity | value |
| --- | --- | --- | --- | --- | --- | --- |
| Cc1cc(C)c(CNC(=O)c2cc(Cl)c3c(c2C)O[C@@](C)([C@H]2CC[C@H](N(C)C)CC2)O3)c(=O)[nH]1 | IWG criteria, CR or PR | relapsed/refractory PTCL patients | dose not given |  | overall response rate | 55% |
| C[C@H]1C[C@H]2CSC(N)=N[C@@]2(c2nc(NC(=O)c3ccc(OC(F)F)cn3)cs2)CO1 | measured: total Aβ | healthy adults, plasma | 125 mg once daily, day 10 | relative to: placebo | percent change from baseline | -62.1% |
| Cc1cc([C@H]2C[C@H]3[C@@H](CF)SC(N)=N[C@@]3(c3ccc(F)cc3F)CO2)on1 | measured: Aβx-40 | wild-type mouse, brain | subcutaneous, 30 mg/kg, 3 h |  | brain Aβ40 level | 1.84 ng/g |
| CC(C)[C@H](C(=O)Nc1ccc(C(=O)NO)cc1)c1ccccc1 | volumetric MRI | human, left parieto-occipital meningioma | dose not given, day 358 |  | tumour volume | 0.0264 cm3 |
| CN[C@@H]1COc2c(S(=O)(=O)NC(=O)Nc3c4c(cc5c3CCC5)CCC4)cnn2C1 | measured: IL-1β | human participants, whole blood ex vivo | 300 mg twice daily, multiple doses, 145 h, with: LPS/ATP | relative to: baseline | inhibition | 99.7% |
| O=C(COc1ccc(Cl)cc1)NC12CC(c3nnc([C@H]4C[C@@H](OC(F)(F)F)C4)o3)(C1)C2 | measured: ATF4 | PBMC ex vivo stimulated, human ALS patients | 100 mg, D21 predose | relative to: baseline | protein level change | -59.3% |
| CC#CC(=O)N[C@H]1CCCN(c2c(F)cc(C(N)=O)c3[nH]c(C)c(C)c23)C1 |  | healthy volunteers, multiple ascending dose, serum | 1 mg once daily, day 21 |  | change from baseline in serum IgM | -4.1% |
| CC(C)c1c(C(=O)Nc2ccccc2)c(-c2ccccc2)c(-c2ccc(F)cc2)n1CC[C@@H](O)C[C@@H](O)CC(=O)O |  | cynomolgus monkey, male, serum | 40 mg/kg or 25 mg/kg, day 176, 4224 h |  | LDL-C | 53.3 mg/dL |
| Cc1cc(F)cc2c(CCC(=O)N[C@@H]3C(=O)NC[C@H]3O)c(-c3ccc(F)cc3)[nH]c12 |  | APOL1 G2 mice, IFNγ-induced | 30 mg/kg twice daily, day 7 |  | urine albumin/creatinine ratio | 362 µg/mg and 13000 µg/mg and 644 µg/mg and 1080 µg/mg and 531 µg/mg and 452 µg/mg |
| NCC(=O)Nc1cncc(-c2nn3c(=O)cc(N4CCNCC4)nc3s2)c1 | ADP-induced platelet aggregation, light transmission aggregometry | human stable CAD patients on aspirin, platelets ex vivo | 0.05 mg/kg, 60 min post dose, with: 20 µM ADP | relative to: placebo difference | inhibition of platelet aggregation | 41.7% |
| CSc1ccc(C(=O)/C=C/c2cc(C)c(OC(C)(C)C(=O)O)c(C)c2)cc1 | RT-PCR, measured: ANGPTL3, Apo C-III | db/db mice, MCD diet-fed, liver | 30 mg/kg | relative to: model group | mRNA level | no effect |
| O=C(/C=C/c1ccc(O)c(O)c1/C=C/c1ccc(O)c(O)c1)O[C@H](Cc1ccc(O)c(O)c1)C(=O)O |  | isolated myocardial tissue | 10 µM |  | CPP | 43.3 mmHg |
| Cc1cn(-c2cc(NC(=O)c3ccc(C)c(Nc4nccc(-c5cccnc5)n4)c3)cc(C(F)(F)F)c2)cn1 | measured: homovanillic acid | human, cerebrospinal fluid | dose not given, between 12 and 6 months, unit not given | relative to: placebo | median difference in change | 18 |
| COc1cc2cc(-c3ccc(CC(=O)Nc4cc(C(C)(C)C(F)(F)F)no4)cn3)cnc2cc1OC |  | human RET-mutant medullary thyroid cancer | 75 mg, phase I, RECIST 1.1 |  | disease control rate | 86% |
| N#Cc1ccc2c(-c3ccncc3)c(-c3ccc(F)cc3)nn2c1 | kinase binding, competitor, MIB/MS competition, measured: ATG1 | Candida albicans cell lysate | 10 µM | relative to: DMSO | log2 fold change | -0.3 |
| CC(C)c1nc(N(C)S(C)(=O)=O)nc(-c2ccc(F)cc2)c1/C=C/[C@@H](O)C[C@@H](O)CC(=O)O |  | human, HIV-infected, plasma | concentration not given, median after treatment |  | triglycerides | 1.9 mmol/L |
| N=C(N)NCCC[C@H](NC(=O)[C@H](CCCNC(=N)N)NC(=O)[C@H](CCCCN)NC(=O)[C@H](CCC(N)=O)NC(=O)[C@H](CCCCN)NC(=O)[C@H](Cc1ccc(O)cc1)NC(=O)[C@@H](N)CCCCN)C(=O)N[C@@H](CO)C(=O)N[C@@H](Cc1ccc(O)cc1)C(=O)N[C@@H](CCCCN)C(=O)O |  | human, dentin hypersensitivity patients | topical to tooth, 5 µg/tooth repeated, day 36, phase 1/2a trial | direction not given | change in Schiff sensitivity score | -1.2 ± 0.84 |
| C[C@@H](NC(=O)N1C(=O)[C@H](Cc2ccnc(N)c2)[C@H]1C(=O)O)C1CCCCC1 |  | human | iv infusion, 0.3 mg/kg/h, 24 h, unit not given | relative to: baseline | aPTT AUEC | 173 |
| CC(C)(C)c1cc(C(C)(C)C)c(NC(=O)c2c[nH]c3ccccc3c2=O)cc1O |  | rat colon ex vivo | 10 µM, with: β3 antagonist SR59230A | relative to: vehicle | contraction amplitude change | 3 fold |

| SMILES | assay | test system | setting | scale | quantity | value |
| --- | --- | --- | --- | --- | --- | --- |
| C=CC[C@@H]1/C=C(\C)C[C@H](C)C[C@H](OC)[C@H]2O[C@@](O)(C(=O)C(=O)N3CCCC[C@H]3C(=O)O[C@H](/C(C)=C/[C@@H]3CC[C@@H](O)[C@H](OC)C3)[C@H](C)[C@@H](O)CC1=O)[C@H](C)C[C@@H]2OC |  | rhesus monkey kidney transplant, kidney allograft | dose not given | direction not given | Banff mm score | 0 |
| Cc1n[nH]c2ccc(-c3cc(OC[C@@H](N)Cc4ccccc4)cnc3-c3ccoc3)cc12 | kinase binding, competitor, MIB/MS competition, measured: PKH3 | Candida albicans cell lysate | 100 nM | relative to: DMSO | log2 fold change | -0.246 |
| COc1nc(NCc2cn(-c3ccc(C(=O)Nc4ccc(Cl)cc4)cc3)nn2)nc(OC)n1 | MTT | normal colonocytes, rat | 72 h |  | maximum non-toxic concentration | 35.06 ± 0.23 nM |
| COc1ccc(-c2cncc(N[C@@H](C)c3cccc(NC(=O)c4cncc(C)c4)c3)n2)cc1OC | measured: rno-miR-128-3p | rat SU5416/hypoxia model, lung | dose not given | relative to: SU5416/hypoxia vehicle | fold change | 0.57 |
| C[C@@H](Nc1cc(F)cc(F)c1)c1cc(C(=O)N(C)C)cc2c(=O)cc(N3CCOCC3)oc12 | immunohistochemistry, measured: phospho-PRAS40 | human, tumor biopsy | oral, 120 mg twice daily continuous, 336 h after first dose | relative to: baseline, direction not given | pPRAS40 H-score change | -49.7% |
| Cc1coc([C@H]2C[C@H]3[C@@H](CF)SC(N)=N[C@@]3(c3ccc(F)cc3F)CO2)n1 | measured: Aβx-42 | Mus musculus wild-type, brain | subcutaneous, 80 mg/kg, 9 h |  | Aβ42 level | 0.7 ng/g |
| O=C(O)c1cc(N2N=C(C(F)(F)F)/C(=C/c3ccc(-c4ccccc4)o3)C2=O)ccc1Cl |  | mouse, Ero1α-null platelets | 3 µM |  | platelet aggregation | inhibited |
| OC(CCN1CCCCC1)(c1ccccc1)C1CC2C=CC1C2 (stereo not shown) | resting-state EEG | healthy elderly humans | oral, 4 mg, eyes open, LS mean |  | EEG Beta3-power Fz-Cz | 2 µV² |
| Cc1oncc1C(=O)Nc1ccc(C(F)(F)F)cc1 | measured: dihydroorotate | female CD-1 mice, blood | oral, 30 mg/kg daily, 8 h after dose 1 |  | DHO concentration | 17.8 ± 2.1 µM |
| COc1nc(NCc2cn(-c3ccc(NC(=O)c4ccc(C)cc4)cc3)nn2)nc(OC)n1 | MTT | normal colonocytes, rat | 72 h |  | maximum non-toxic concentration | 2.75 ± 1.12 nM |
| CC[C@@H](C)[C@@H](NC(=O)[C@@H](Cc1ccc(O)cc1)NC(=O)[C@H]1CCCN1C(=O)[C@@H](CCCNC(=N)N)NC(=O)[C@H](N)Cc1c[nH]cn1)C(=O)N[C@H](C)C(=O)N[C@H](Cc1c[nH]cn1)C(=O)N[C@H](CCCNC(=N)N)C(=O)N[C@@H](C(=O)N[C@H](Cc1ccc(O)cc1)C(=O)N[C@H](CO)C(=O)N[C@H](Cc1ccccc1)C(N)=O)C(C)C | ex vivo flow cytometry | MC-38 tumour-bearing mice, spleen | dose not given | relative to: CD8+ T cells | IFN-γ+ CD8+ T cells | 3.7% and 4.98% and 5.96% and 5.99% |
| CCCCC1(CCCC)CN(c2ccccc2)c2cc(SC)c(OCC(=O)N[C@@H](C(=O)NCC(=O)O)c3ccccc3)cc2S(=O)(=O)C1 | measured: 7α-hydroxy-4-cholesten-3-one | human, plasma | 15 mg once daily, day 7 |  | plasma C4 | 71.8 ng/mL |
| c1ccc(-c2n[nH]cc2-c2ccnc3ccccc23)nc1 | kinase binding, competitor, MIB/MS competition, measured: CEK1 | Candida albicans cell lysate | 100 nM | relative to: DMSO | log2 fold change | 1.22 |
| CCOc1ccc(Cc2cc([C@@H]3S[C@H](CO)[C@@H](O)[C@H](O)[C@H]3O)c(OC)cc2C)cc1 |  | human | oral, dose not given, single ascending dose |  | urinary glucose excretion | 70.9 g/day |
| CCCn1cc(C)c2c(=O)[nH]c(-c3cc(S(=O)(=O)N4CCN(CC)CC4)ccc3OCC)nc21 |  | supine | concentration not given, 0 to 4 h | relative to: baseline | change in SBP AUEC(0-4 h) | 5.04 ± 17.3 mmHg·h |
| N#Cc1ccc2c(CN3CCOCC3)cc(-c3ccc([C@H]4CCC(=O)N4)cc3)nc2c1 | decreased, measured: Ccl2 | BTBR ob/ob mice, male, diabetic wound model, wound tissue | dose not given, 21 days | relative to: vehicle | mRNA level | decreased |
| C[C@H]1O[C@@H](O[C@H]2CC[C@@]3(C)[C@@H](CC[C@]4(C)[C@@H]3C=C[C@]35OC[C@@]6(CCC(C)(C)C[C@H]63)[C@@H](O)C[C@]54C)[C@]2(C)CO)[C@H](O)[C@@H](O[C@@H]2O[C@H](CO)[C@@H](O)[C@H](O)[C@H]2O)[C@H]1O | confocal immunostaining | chronic-plus-binge ethanol-fed mice, liver | dose not given, high dose |  | SIRT1 immunofluorescence | 25.2% and 21.8% and 28.3% |
| CC1(C)CCC(CN2CCN(c3ccc(C(=O)NS(=O)(=O)c4ccc(NCC5CCOCC5)c([N+](=O)[O-])c4)c(Oc4cnc5[nH]ccc5c4)c3)CC2)=C(c2ccc(Cl)cc2)C1 | cell killing | normal peripheral blood CD3+ T cells, human | 24 h |  | EC50 | 2690 nM |

For quick reference, copied from above:
| SMILES | assay | test system | setting | scale | quantity | value |
| --- | --- | --- | --- | --- | --- | --- |
| CSc1ccc(C(=O)/C=C/c2cc(C)c(OC(C)(C)C(=O)O)c(C)c2)cc1 | RT-PCR, measured: ANGPTL3, Apo C-III | db/db mice, MCD diet-fed, liver | 30 mg/kg | relative to: model group | mRNA level | no effect |
| O=C(/C=C/c1ccc(O)c(O)c1/C=C/c1ccc(O)c(O)c1)O[C@H](Cc1ccc(O)c(O)c1)C(=O)O |  | isolated myocardial tissue | 10 µM |  | CPP | 43.3 mmHg |
| Cc1cn(-c2cc(NC(=O)c3ccc(C)c(Nc4nccc(-c5cccnc5)n4)c3)cc(C(F)(F)F)c2)cn1 | measured: homovanillic acid | human, cerebrospinal fluid | dose not given, between 12 and 6 months, unit not given | relative to: placebo | median difference in change | 18 |
| COc1cc2cc(-c3ccc(CC(=O)Nc4cc(C(C)(C)C(F)(F)F)no4)cn3)cnc2cc1OC |  | human RET-mutant medullary thyroid cancer | 75 mg, phase I, RECIST 1.1 |  | disease control rate | 86% |
| N#Cc1ccc2c(-c3ccncc3)c(-c3ccc(F)cc3)nn2c1 | kinase binding, competitor, MIB/MS competition, measured: ATG1 | Candida albicans cell lysate | 10 µM | relative to: DMSO | log2 fold change | -0.3 |
| CC(C)c1nc(N(C)S(C)(=O)=O)nc(-c2ccc(F)cc2)c1/C=C/[C@@H](O)C[C@@H](O)CC(=O)O |  | human, HIV-infected, plasma | concentration not given, median after treatment |  | triglycerides | 1.9 mmol/L |
